Experimental data pooled from the literature.
Every numbered part comes from another study and shows a few of its results, in no order.

Sample 1
Target: Interferon regulatory factor 3, full length, phosphomimetic (IRF3, Homo sapiens, UniProt Q14653, residues 1-427, S386D/S396D/S398D/S402D/T404D/S405D)
Sequence of UniProt Q14653 (whole entry, unmodified, looked up): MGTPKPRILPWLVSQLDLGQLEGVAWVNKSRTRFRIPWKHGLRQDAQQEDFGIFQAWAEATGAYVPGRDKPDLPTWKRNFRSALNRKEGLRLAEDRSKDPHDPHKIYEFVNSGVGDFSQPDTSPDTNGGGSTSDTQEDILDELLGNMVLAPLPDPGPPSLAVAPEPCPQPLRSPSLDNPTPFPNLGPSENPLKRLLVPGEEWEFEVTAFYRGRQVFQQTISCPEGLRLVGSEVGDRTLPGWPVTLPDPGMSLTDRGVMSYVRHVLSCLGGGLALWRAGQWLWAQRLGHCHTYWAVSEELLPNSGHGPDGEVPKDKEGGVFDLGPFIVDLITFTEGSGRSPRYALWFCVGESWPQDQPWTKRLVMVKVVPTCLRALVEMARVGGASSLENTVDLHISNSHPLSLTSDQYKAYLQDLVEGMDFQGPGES
Method: protein-binding microarray
Form: double-stranded DNA, one strand shown
Sample: in vitro
Tested at: 2540 nM top
Notes: 60-bp whole probe
Added: salmon DNA 0.4 mg/ml
Reference: random background probes
Direction: higher = stronger binding
Constant ends, left off below: GCCTAGCAC … GTCTTGATTCGCTTGACGCTGCTG
`GACGGTCTCGGACTTGGGACGTGCTAG`: “fitted relative affinity” 0.322 z-score.
`TTAGGTTTACTTCTCCTTTAGTGCTAG`: “fitted relative affinity” 2.86 z-score.
For `TGGAATTTCCCTCTCCCCTCGTGCTAG`, “fitted relative affinity” read 3.63 z-score.
For `GACGATATCAGTTTCGATACGTGCTAG`, “fitted relative affinity” read 5.18 z-score.
`GTAGGTTTCGGGACTGGGTTAGTGCTA`: “fitted relative affinity” 4.4 z-score.

Sample 2
Cell line: HEK-293T/ACE2
Tested at: concentration not given
Time: 16 (unit not given)
Reference: vehicle
The viability of `CC(=O)N[C@H]1[C@H]([C@H](O)[C@H](O)CO)OC(C(=O)O)=C[C@@H]1N=C(N)N` is reported as 106%.
The viability of `CC[C@@H](C(N)=O)N1CCCC1=O` is reported as 107%.
`Nc1cccc2c1C(=O)N(C1CCC(=O)NC1=O)C2=O` (stereo not drawn) gave a viability of 91.8%.

Sample 3
Target: Histone acetyltransferase KAT6A, winged helix 2, GST fusion (KAT6A, Homo sapiens, UniProt Q92794, residues 85-181)
Method: protein binding microarray
Form: double-stranded DNA, one strand shown
Sample: in vitro
Tested at: not given
Notes: 8-mer, flanks averaged, mean of 2 arrays, mostly near background
Reference: not given
Direction: higher = stronger binding
Residues (chain): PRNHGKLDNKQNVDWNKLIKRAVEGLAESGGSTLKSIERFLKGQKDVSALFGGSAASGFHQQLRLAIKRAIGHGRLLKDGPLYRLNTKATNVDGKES
For `GAACTATC`, the E-score was -0.148.
`CGTTTAGC` has an E-score of 0.142.
`AGTGACAT` gave an E-score of 0.0154.
For `AACTAGTT`, the E-score was -0.179.
`GAGAGGAA` gave an E-score of 0.0572.
`ATTCGCAG` has an E-score of 0.122.
For `ATTCCAAC`, the E-score was 0.15.
For `GACATCAA`, the E-score was 0.101.

Sample 4
Target: RNA binding protein fox-1 homolog 2, RRM domain, GST-SBP tag (RBFOX2, Homo sapiens, UniProt O43251-10, residues 100-194)
Method: RNA Bind-n-Seq
Form: RNA
Sample: in vitro
Tested at: 365 nM
Notes: natural RNA segment, single round, ends assumed
Reference: no-protein control
Direction: higher = stronger binding
Target sequence (chain): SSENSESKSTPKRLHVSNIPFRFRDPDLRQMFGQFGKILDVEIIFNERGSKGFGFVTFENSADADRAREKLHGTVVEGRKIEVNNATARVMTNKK
`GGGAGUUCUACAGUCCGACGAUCAUCCGUCUCCUCACGGUGCAAUCAGGCAGGACAGGAGGAGGUGCAGGGCUACCACAUUGACCCAGAUGGUAUCUCCUCUCACCAUUCAGACAUCCAUAAGGAAUGCCAAAUGGAAUUCUCGGGUGCCAA`: “RBNS enrichment (R)” 0.272.
`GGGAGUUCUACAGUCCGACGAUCGCUCUAUCUCUACAACAUUUAAUGAAUUUCUUGUAAACCACUUUGAGAUACAUUGUUUUGGAAAUUCAUACAAUUUUCUCAACAUGGUACUCUACUGGCAGGAUGCAGUUUGGAAUUCUCGGGUGCCAA` — result for “RBNS enrichment (R)”: 0.553.
For `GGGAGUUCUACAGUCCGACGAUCGCUGCAAGGGCCAGGCCAGAAAAGGGCGGGCCUGCAGCCUGCACCCCCCACCUUCCCCAACCCUUCCUCAAGAGCUGAAGGGAUCCCAGCCCCUAGGUGGGCAGAGGCAGUGGAAUUCUCGGGUGCCAA`, “RBNS enrichment (R)” read 0.451.
`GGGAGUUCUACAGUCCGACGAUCAAUUAUUUUCUAAGCAAAAUAACACUUGUUUGUUUAUGGCCCAUGGAUCAUAGCUUCCUGUCCCCACCUAUUUUUGUAAAUAAAGUUUUAUGGGAACACAACCACAUCCAUGGAAUUCUCGGGUGCCAA` — result for “RBNS enrichment (R)”: 0.242.
Under “RBNS enrichment (R)”, `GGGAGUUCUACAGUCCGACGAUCCUAUUCUGCAAAUAGUGUAUUUCCUGGAUUACACAUAGUAUGGUUUCCUGAAGUAUUCUGAUAAAUGUGUUUUUUAAAACCUCAAUAUACUUUUUAGAAAAGGAGCAUCUUGGAAUUCUCGGGUGCCAA` is recorded as 0.294.
`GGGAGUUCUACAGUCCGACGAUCUUAUUGUAUGGCAUAGGACUGGCAUUAUAUAGCAGAAAUCAACUACUGUACAAUUUCUUGGGGUUAACCAUCUUUAGUUAAAUGGAAUUUUAAUUUAAAUGACGCUUUGCUGGAAUUCUCGGGUGCCAA`: “RBNS enrichment (R)” 0.507.
`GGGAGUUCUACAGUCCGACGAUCAGGCUGAGAGCUGAGCAGAGCACACUAGGCAGGGAAAGCCAUGUGGGUCUCCAGUCCUGUUUGCCUGAAUGCUCUGGGAUCUAUGCCUAGAGCAAGCCUGAAGACGGCCCUGGAAUUCUCGGGUGCCAA`: “RBNS enrichment (R)” 0.39.
For `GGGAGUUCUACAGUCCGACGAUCUUAAUCACACUAUAGAGGCAUAAGUGGUAUCAGUUUUCAUUUUUCUAAUUGUUUAAACUGUGUUUUAUACCAGUGUUUGCAAGUAAUUGGGUGUUAGCUUGAGAUGGUUAUGGAAUUCUCGGGUGCCAA`, “RBNS enrichment (R)” read 0.374.

Sample 5
Target: Replicase polyprotein 1ab, polymerase (rep, Severe acute respiratory syndrome coronavirus 2, UniProt P0DTD1)
Observed: enzyme activity
Action: inhibitor
Tested at: 20 µM
With `O=C(O)CCCCC(=O)O` the inhibition was 2.66%.
The inhibition of `N#Cc1cn([C@@H]2O[C@H](CO)[C@@H](O)[C@H]2O)c2ncnc(N)c12` is reported as 2.67%.
`O=C(N[C@H]1CN2CCC1CC2)c1ccc(Cl)cc1` gave an inhibition of -2.16%.
The inhibition of `Clc1ccc(C(OCCN2CCCCC2)c2ccccc2)cc1` (stereo not drawn) is reported as -3.14%.
`COc1cc(NC(=O)c2ccccn2)ccc1Cl` gave an inhibition of -14%.
With `C[C@H](N)Cn1ccc2cc(F)c(Cl)cc21` the inhibition was -0.61%.
`CCOc1nc2cccc(C(=O)OC(C)OC(=O)OC3CCCCC3)c2n1Cc1ccc(-c2ccccc2-c2nn[nH]n2)cc1` (stereo not drawn) has an inhibition of -8.07%.
`Cc1cccc(C)c1NC(=O)CN1CCN(CCCC(c2ccc(F)cc2)c2ccc(F)cc2)CC1` gave an inhibition of 2.29%.
`Fc1ccc(-c2nc3n(c2-c2ccncc2)CCS3)cc1` gave an inhibition of -2.02%.
`O=C(Nc1cc(-c2ccccc2)nn1-c1ccccc1F)c1ccc([N+](=O)[O-])cc1` has an inhibition of 3.48%.
`O=C(/C=C\n1cnc(-c2cc(C(F)(F)F)cc(C(F)(F)F)c2)n1)NNc1cnccn1` gave an inhibition of -0.52%.
The inhibition of `NS(=O)(=O)c1cc2c(cc1C(F)(F)F)NC(Cc1ccccc1)NS2(=O)=O` (stereo not drawn) is reported as -4.36%.
For `C[C@]12C[C@H](O)[C@H]3[C@@H](CCC4=CC(=O)CC[C@@]43C)[C@@H]1CC[C@@H]2C(=O)CO`, the inhibition was 3.07%.
With `Cc1cc(/C=C/C#N)cc(C)c1Nc1ccnc(Nc2ccc(C#N)cc2)n1` the inhibition was 1.14%.
`CC(=O)N1CC[N+](C)(C)CC1` gave an inhibition of -12.4%.
For `C[C@]12CCC(=NOCCN)C[C@@H]1C(=O)C[C@@H]1[C@@H]2CC[C@]2(C)C(=O)CC[C@@H]12`, the inhibition was -5.12%.
The inhibition of `N[C@@H](Cc1ccc(O)c(O)c1)C(=O)O` is reported as -0.18%.
For `Cc1ccc([N+](=O)[O-])cc1O`, the inhibition was 3.31%.
For `N#CN=C(NCCCCCCOc1ccc(Cl)cc1)Nc1ccncc1`, the inhibition was 1.53%.
`CSc1ccc(OCc2ncc([N+](=O)[O-])n2C)cc1` gave an inhibition of -3.13%.
`N=C(CC(O)COc1ccccc1-c1ccccc1)N1CCCCC1` (stereo not drawn) gave an inhibition of -6.32%.
The inhibition of `CCCNS(=O)(=O)Nc1ncnc(OCCOc2ncc(Br)cn2)c1-c1ccc(Br)cc1` is reported as 2.77%.
`c1cc(Nc2cc(C3CC3)[nH]n2)nc(Nc2ccc3nc[nH]c3c2)n1` gave an inhibition of -2.65%.
For `CC(C)(C)C#Cc1cc(N(C(=O)[C@H]2CC[C@H](C)CC2)[C@H]2CC[C@H](O)CC2)c(C(=O)O)s1`, the inhibition was -0.05%.

For quick reference, copied from above (sample 5):
For `C[C@]12CCC(=NOCCN)C[C@@H]1C(=O)C[C@@H]1[C@@H]2CC[C@]2(C)C(=O)CC[C@@H]12`, the inhibition was -5.12%.
For `Cc1ccc([N+](=O)[O-])cc1O`, the inhibition was 3.31%.
The inhibition of `NS(=O)(=O)c1cc2c(cc1C(F)(F)F)NC(Cc1ccccc1)NS2(=O)=O` (stereo not drawn) is reported as -4.36%.
The inhibition of `CCCNS(=O)(=O)Nc1ncnc(OCCOc2ncc(Br)cn2)c1-c1ccc(Br)cc1` is reported as 2.77%.
`O=C(N[C@H]1CN2CCC1CC2)c1ccc(Cl)cc1` gave an inhibition of -2.16%.
With `C[C@H](N)Cn1ccc2cc(F)c(Cl)cc21` the inhibition was -0.61%.
